Published values of several laboratories.
Numbered parts are unrelated; each lists some results of a single study. Positions count from the first letter of the parent shown.

Block 1
Target: ABI1, truncated, D143A, DHFR fusion (Arabidopsis thaliana)
Method: DHFR PCA, deep sequencing
Matrix: yeast
Notes: methotrexate growth selection, single substitutions
Added: (+)-ABA 0.0091 µM
Relative to: wild-type fitted maximum
Direction: higher = stronger binding
Parent: PYL1, truncated, DHFR fusion (Arabidopsis thaliana); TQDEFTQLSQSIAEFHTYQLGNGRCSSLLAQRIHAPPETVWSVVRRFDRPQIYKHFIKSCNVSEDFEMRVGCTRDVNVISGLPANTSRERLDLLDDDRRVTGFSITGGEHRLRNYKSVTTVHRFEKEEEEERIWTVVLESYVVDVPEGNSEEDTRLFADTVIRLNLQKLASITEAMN; partner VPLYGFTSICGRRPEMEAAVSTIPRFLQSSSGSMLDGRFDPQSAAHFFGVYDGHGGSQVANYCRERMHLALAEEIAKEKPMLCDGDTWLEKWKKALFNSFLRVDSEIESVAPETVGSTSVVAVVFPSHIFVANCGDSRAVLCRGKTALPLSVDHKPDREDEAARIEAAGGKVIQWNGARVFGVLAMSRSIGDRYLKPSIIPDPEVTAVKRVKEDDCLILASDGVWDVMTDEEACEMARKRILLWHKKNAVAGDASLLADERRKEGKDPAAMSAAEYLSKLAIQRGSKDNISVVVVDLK
Change | relative binding score [%]
I79L | 4.82
E131Q | 55.2
R45K | -0.137
Q51E | 19.8
T17Q | 15.2
I33H | -0.603
G21Q | 26.5
A84V | 24.9
W41P | 9.84
V143Q | -1.85
Q167P | 2.01
S80T | 41.2
V161M | 67.2
K58L | 2.71
G107F | -8.21
L138T | 1.07
P36N | 17.8
V76I | 43.8
I105D | 0.733
F56H | -0.608
N114H | -2.66

Block 2
Target: RNA binding protein fox-1 homolog 2, RRM domain, GST-SBP tag (RBFOX2, Homo sapiens, UniProt O43251-10, residues 100-194)
Method: RNA Bind-n-Seq
Molecule type: RNA
Matrix: in vitro
Tested at: 365 nM
Notes: natural RNA segment, single round, ends assumed
Relative to: no-protein control
Direction: higher = stronger binding
Constant ends, left off below: GGGAGUUCUACAGUCCGACGAUC … UGGAAUUCUCGGGUGCCAA
Construct (chain): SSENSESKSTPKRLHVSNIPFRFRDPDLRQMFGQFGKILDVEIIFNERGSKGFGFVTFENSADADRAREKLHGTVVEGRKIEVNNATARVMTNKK
Oligonucleotide | RBNS enrichment (R)
GCCAUUUAGAAAAUCUUUUGGAUUUUCCUGUGGUUUAUGGCAAUAUGAAUGGAGCUUAUUACUGGGGUGAGGGACAGCUUACUCCAUUUGACCAGAUUGUUUGGCUAACA | 0.675
UCAUUCUUGCCGACUCCUCCCCCUCUGAAGCAGGUUAGCAUUGAAGGUGGUAUGGAAGCCUGCAUGCGUGUUCAACUCUGUUCCUCCUCCCUCCUCCUCGGCCUCCCUCC | 2.7
AGUUGUAAGAUAACAUUUGAAAUGUGAGACUAUAUGGUUUUUAAUAAAAUGUUUGAUGUUUUAUCCCUCUGGGUCUGUGAUCUUAUUGGACCUUAGAAGUACUCUGAGCC | 0.393
GACCUUGCUGGUGUAGUCUUUUUAUAGGUUUUAUAAACCACAUGAGCCUAUAUCAGUCAUUUUAGUGUCUGACCUAAUGCUUGGCACUGUCAGUGCUUUGUUUAGAUGAU | 0.215
ACUGAACAGAAUUAUAGACAUUUGCUGGUGGAAGGGAUAACUAUGUACAUCUAACUAGGACUCAGAAAGAGCUCCUGCGCAUGGUCAUAGAACAAUGGCGUUCUGUAAUU | 11.9
UUGGGGAUCGAUGUGCUCAGCCAAAUUUCCUGUUUGAAAUAUCAUGUUAAAUUAGAAUGAAUUUAUCUUUACCAAAAACCAUGUUGCGUUCAAAGAGGUGAACAUUAAAA | 1.16
CUCCCUGCCCAGGUUGUCCCUGGAGGGCAGCCCUCACUCCCUUUGGGGGAGAGGCAGACAUUGCUGCCCACAGACCUGCCUCUGACUCAACUGUGUCCACCCUCCCUGGU | 0.303
AGAGAACGGGACCGGCACCACUGAGAAAGGAGUCUGGUUGGAAGCAAAUGUUUUUUUAAUGGACUUGCAUCUCCUCACCUUGAUCAGGACUAAAGGACGGAGGCCGCCCC | 0.395
CUUGAACUCUGGGGCUUUAAUUCCACUGUUUAAUUUUCAGGUACCACAGCAGCAAAGCACAGAGUGUGACCUUUUUCAUGUCUGAGCUGAUUCUGUUUGCUCCACGUGCC | 0.241
AAGGAGCUCUUCAGUUGGAGAUCUAGGCAGUGGGUUAAGCCAGACCCCUAAAGUGACCCUUUCCUCUUCUGCCCUAUUCUUCUCAGACCCUCAGAAAGACAUCCAAUUUU | 0.22
AUAGAAUGUCCCAGUUAAGAUUUUACAGAAGCACCUGGAAUAUCUCAUUAAAAAUUUAAAAACUCUUUUCCUGCUCUCUUUUGCUUCAUUGUUUGAUUUUAUUAACUUUU | 1.08
AUGGAUAAUUGCUUCACAGCCUUGGCCAUCCUGGCUCAGCUCUCAAUUUAGUAUAAUAUGCAGUUCCUGUGCCUCCAGACUAUGCAGCUCAUCACCCUAGGUUCUACAGG | 0.25

Block 3
Target: PABPC1L2, full length, GST fusion (mouse, UniProt A0ABA7IW68)
Method: RNAcompete
Molecule type: RNA
Matrix: in vitro
Tested at: 20 nM
Notes: 7-mer, probes averaged, single round
Relative to: mean of 7-mers
Direction: higher = stronger binding
Residues (chain): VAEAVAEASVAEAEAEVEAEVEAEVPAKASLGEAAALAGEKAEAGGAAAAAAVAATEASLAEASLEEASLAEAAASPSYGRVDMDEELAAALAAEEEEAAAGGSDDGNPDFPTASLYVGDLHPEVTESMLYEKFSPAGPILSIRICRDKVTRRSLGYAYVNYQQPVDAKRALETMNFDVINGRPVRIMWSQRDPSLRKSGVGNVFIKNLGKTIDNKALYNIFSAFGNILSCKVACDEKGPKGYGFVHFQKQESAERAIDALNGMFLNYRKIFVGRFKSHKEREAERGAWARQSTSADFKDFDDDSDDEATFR
Oligonucleotide | 7-mer Z-score
UCGGAGC | 0.117
UCUGUCA | -0.286
UUGCGAA | -0.0681
CUUAACG | -0.267
UUUCGGU | -0.32
UACUCAC | -0.157
AGGGAAC | 0.323
GCAGAAA | 1.48
UGCUUCC | -0.374
CACUCUC | -0.421
UGCUGCA | -0.325
AAAGAAA | 4.15
CCUGCAC | -0.209
GACACAC | -0.0736
CUCACUG | -0.3
CGGACUG | 0.00979
UUCUAAG | -0.438
CCUAUGG | -0.228
GCAAUGC | -0.113
GGGAAGU | 0.0497
UUUGUAG | -0.335

Block 4
Target: CCND3, cyclin fold, Cln2 fusion (human)
Method: yeast growth competition, sequencing
Matrix: yeast
Notes: weak parent motif
Relative to: not given
Direction: higher = stronger binding
Parent: MICAL3 docking peptide (human); LQLRRQLSFSEDS
Change | normalised enrichment score
L7M | 0.408
D12N | -0.019
L7D | -0.0918
S8M | -0.0746
Q2N | 0.272
S8L | 0.342
Q2D | -0.101
E11G | 0.0115
S8K | 0.209
E11L | 0.122
Q2K | 0.188
R5Q | 0.1
R5W | 0.115
L3W | 0.156
L7F | -0.274
S8V | -0.254
Q2R | -0.254
R5A | 0.0741
L3S | 0.387
R5M | -0.0483
L3N | 0.157
R4F | 0.0708

Block 5
Sequence: B1 (RMND5B RING domain)
Method: yeast two-hybrid
Matrix: yeast
Notes: mostly zero background
Relative to: not given
Direction: higher = stronger interaction
B1: RMND5B RING domain (UniProt Q96G75); chain MKCWYHSVFACPILRQQTSDSNPPIKLICGHVISRDALNKLINGGKLKCPYCPMEQNPADGK
target | lacZ reporter activity
UBE2M UBC core domain (UniProt P61081) | 0
UBE2L3 UBC core domain (UniProt P68036) | 0
UBE2O UBC core domain (UniProt Q9C0C9) | 0
UBE2Q1 UBC core domain (UniProt Q7Z7E8) | 0
UBE2C UBC core domain (UniProt O00762) | 0
UBE2R2 UBC core domain (UniProt Q712K3) | 0
UBE2I UBC core domain (UniProt P63279) | 0
UBE2E3 UBC core domain (UniProt Q969T4) | 5480
UBE2S UBC core domain (UniProt Q16763) | 0

Excerpt of the above (block 3):
Oligonucleotide | 7-mer Z-score
UCUGUCA | -0.286
UUGCGAA | -0.0681
CUUAACG | -0.267
UUUCGGU | -0.32
UACUCAC | -0.157
AGGGAAC | 0.323
GCAGAAA | 1.48
UGCUUCC | -0.374
CACUCUC | -0.421
UGCUGCA | -0.325
AAAGAAA | 4.15
CCUGCAC | -0.209
